Experimental data of several laboratories.
Values joined by “and” are separate records of one study, mostly repeats; a detail may differ. ± gives the spread as reported.
Melanocortin receptor 4: Melanocortin receptor 4 (Mus musculus, UniProt P56450)
UniProt P56450, sequence (whole entry, looked up): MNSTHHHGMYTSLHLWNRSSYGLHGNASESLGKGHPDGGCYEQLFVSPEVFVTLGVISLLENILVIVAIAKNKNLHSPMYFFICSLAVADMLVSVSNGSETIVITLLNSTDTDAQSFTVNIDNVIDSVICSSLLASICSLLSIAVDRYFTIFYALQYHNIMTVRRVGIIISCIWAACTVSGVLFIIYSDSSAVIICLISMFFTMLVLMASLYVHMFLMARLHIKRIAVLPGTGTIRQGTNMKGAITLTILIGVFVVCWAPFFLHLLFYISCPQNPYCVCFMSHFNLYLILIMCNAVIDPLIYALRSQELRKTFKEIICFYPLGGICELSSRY
ATP2A2: ATP2A2 (Sus scrofa, UniProt P11607)
UniProt P11607, sequence (whole entry, looked up): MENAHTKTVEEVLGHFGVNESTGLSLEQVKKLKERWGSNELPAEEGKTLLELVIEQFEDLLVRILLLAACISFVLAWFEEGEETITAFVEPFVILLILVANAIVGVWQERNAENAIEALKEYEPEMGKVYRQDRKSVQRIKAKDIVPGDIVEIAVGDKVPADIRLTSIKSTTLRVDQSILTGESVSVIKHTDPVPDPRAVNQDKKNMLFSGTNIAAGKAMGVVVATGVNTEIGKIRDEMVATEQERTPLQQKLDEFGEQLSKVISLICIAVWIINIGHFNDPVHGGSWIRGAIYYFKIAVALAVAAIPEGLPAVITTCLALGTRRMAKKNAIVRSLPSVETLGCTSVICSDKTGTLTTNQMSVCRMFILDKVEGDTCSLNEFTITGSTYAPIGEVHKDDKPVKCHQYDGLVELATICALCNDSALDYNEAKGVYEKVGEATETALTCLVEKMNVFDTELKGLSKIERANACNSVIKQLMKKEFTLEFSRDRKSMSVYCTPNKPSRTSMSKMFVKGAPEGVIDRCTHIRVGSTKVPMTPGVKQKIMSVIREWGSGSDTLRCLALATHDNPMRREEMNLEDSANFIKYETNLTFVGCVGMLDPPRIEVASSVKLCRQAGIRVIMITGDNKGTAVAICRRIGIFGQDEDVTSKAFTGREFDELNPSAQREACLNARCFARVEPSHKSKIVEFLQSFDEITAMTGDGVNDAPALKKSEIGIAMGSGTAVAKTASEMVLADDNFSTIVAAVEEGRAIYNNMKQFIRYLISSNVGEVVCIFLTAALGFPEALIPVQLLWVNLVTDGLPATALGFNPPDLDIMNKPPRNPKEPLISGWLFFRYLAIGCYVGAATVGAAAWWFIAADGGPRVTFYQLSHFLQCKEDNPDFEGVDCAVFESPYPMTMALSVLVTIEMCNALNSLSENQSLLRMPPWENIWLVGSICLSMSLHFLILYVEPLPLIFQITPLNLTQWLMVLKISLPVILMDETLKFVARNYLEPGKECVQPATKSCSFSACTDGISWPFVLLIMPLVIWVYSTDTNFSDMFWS
GPBAR1: G-protein coupled bile acid receptor 1 (GPBAR1, Homo sapiens, UniProt Q8TDU6)
UniProt Q8TDU6, sequence (whole entry, looked up): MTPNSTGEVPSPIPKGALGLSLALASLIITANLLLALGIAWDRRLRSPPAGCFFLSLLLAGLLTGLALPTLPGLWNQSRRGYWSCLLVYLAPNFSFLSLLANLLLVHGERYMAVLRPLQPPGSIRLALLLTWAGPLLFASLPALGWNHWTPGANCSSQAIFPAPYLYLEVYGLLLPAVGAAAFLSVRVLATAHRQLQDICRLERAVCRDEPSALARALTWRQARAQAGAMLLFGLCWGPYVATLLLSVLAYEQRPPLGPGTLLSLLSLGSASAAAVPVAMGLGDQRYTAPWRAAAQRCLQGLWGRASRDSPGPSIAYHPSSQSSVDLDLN
CHRM1: Muscarinic acetylcholine receptor M1 (CHRM1, Homo sapiens, UniProt P11229)
UniProt P11229, sequence (whole entry, looked up): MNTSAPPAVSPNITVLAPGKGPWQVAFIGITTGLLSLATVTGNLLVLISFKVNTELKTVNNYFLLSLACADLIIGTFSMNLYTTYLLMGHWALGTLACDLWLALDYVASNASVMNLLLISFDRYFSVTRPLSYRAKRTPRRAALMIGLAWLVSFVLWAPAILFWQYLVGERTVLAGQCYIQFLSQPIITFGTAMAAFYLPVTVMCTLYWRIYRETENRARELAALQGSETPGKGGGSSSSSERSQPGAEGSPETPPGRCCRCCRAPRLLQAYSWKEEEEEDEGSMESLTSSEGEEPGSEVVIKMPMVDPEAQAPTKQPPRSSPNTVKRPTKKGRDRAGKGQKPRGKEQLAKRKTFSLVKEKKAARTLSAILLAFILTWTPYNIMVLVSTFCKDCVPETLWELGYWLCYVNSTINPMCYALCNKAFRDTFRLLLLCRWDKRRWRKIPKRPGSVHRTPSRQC
P2RY4: P2Y purinoceptor 4 (P2RY4, Homo sapiens, UniProt P51582)
UniProt P51582, sequence (whole entry, looked up): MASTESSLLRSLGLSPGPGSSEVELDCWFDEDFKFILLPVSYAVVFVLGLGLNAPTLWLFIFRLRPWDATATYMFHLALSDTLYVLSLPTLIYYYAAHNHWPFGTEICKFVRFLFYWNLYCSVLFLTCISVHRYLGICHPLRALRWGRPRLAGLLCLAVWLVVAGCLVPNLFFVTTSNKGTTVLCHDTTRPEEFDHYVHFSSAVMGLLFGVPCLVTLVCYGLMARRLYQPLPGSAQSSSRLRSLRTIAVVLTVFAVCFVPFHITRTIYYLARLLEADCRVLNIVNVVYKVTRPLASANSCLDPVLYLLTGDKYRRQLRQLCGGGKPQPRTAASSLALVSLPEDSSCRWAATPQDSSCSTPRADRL
DNA topoisomerase IB: DNA topoisomerase IB (Leishmania donovani, UniProt A0A3Q8IHS4+Q8WQM6)
UniProt P42261, sequence (whole entry, looked up): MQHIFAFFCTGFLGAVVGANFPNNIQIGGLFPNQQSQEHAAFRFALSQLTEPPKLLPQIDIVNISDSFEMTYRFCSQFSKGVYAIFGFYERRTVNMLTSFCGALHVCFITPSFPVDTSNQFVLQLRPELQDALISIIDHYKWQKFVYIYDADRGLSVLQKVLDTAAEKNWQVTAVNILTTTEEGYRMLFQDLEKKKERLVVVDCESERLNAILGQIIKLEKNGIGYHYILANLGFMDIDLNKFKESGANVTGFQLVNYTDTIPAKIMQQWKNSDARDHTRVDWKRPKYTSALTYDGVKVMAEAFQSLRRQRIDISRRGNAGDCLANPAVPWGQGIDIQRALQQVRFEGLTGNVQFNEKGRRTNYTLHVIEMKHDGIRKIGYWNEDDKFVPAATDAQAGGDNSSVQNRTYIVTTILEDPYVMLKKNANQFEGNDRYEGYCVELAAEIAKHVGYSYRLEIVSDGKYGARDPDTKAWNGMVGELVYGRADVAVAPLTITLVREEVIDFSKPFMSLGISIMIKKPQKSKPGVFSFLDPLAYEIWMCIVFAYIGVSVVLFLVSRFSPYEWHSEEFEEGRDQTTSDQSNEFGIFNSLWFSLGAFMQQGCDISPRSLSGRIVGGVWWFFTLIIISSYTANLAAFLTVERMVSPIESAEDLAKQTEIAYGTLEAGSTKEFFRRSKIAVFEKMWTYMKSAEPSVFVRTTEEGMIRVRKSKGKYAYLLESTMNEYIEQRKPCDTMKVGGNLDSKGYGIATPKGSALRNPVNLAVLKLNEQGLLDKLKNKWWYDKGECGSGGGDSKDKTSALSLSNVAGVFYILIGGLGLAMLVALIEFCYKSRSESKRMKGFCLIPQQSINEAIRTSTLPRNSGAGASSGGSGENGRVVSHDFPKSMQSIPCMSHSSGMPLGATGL
UniProt P37231, sequence (whole entry, looked up): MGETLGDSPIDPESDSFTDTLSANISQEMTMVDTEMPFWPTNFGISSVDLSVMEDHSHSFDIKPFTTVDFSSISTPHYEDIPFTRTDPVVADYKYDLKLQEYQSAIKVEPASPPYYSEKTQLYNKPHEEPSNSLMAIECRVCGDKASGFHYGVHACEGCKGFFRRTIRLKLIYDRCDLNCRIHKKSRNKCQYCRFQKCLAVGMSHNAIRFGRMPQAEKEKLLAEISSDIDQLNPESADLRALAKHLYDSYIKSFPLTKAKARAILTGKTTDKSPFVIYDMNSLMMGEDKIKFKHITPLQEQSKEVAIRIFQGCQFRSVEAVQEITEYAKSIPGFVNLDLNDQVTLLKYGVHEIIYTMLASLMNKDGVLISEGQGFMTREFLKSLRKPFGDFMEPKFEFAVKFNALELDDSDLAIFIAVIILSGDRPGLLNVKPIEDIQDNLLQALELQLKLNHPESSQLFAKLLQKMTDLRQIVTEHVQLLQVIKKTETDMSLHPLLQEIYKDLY
UniProt P11474, sequence (whole entry, looked up): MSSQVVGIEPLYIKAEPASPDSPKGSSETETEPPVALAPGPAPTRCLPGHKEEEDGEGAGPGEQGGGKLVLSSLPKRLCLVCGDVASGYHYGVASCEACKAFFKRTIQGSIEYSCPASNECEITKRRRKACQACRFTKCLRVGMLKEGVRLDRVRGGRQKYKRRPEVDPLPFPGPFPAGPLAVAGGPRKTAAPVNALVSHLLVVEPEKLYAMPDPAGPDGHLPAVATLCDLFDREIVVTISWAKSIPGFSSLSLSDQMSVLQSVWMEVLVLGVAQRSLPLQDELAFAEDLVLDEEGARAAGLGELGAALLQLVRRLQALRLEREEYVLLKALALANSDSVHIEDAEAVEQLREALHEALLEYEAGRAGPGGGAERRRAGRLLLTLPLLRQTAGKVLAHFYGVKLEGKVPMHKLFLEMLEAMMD
UniProt O15297, sequence (whole entry, looked up): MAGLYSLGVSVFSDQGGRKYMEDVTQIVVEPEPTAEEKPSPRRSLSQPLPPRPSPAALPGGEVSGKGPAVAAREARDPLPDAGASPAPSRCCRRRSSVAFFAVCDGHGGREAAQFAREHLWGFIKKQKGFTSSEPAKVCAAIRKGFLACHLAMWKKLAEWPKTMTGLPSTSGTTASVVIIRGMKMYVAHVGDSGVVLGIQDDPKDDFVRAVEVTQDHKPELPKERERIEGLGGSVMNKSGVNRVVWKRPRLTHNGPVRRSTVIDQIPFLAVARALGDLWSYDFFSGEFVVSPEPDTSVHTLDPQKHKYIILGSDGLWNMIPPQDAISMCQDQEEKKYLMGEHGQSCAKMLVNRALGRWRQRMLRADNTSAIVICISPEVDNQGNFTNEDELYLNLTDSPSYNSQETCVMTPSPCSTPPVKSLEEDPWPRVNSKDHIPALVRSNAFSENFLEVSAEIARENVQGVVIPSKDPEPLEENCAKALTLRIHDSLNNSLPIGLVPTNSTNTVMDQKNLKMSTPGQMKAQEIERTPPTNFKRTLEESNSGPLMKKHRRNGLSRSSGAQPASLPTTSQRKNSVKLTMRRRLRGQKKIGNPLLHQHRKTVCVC

SMILES	target	assay	system	setting	EC50
CCCC[C@H](NC(=O)[C@H](CO)NC(=O)[C@H](Cc1ccc(O)cc1)NC(=O)[C@H](CO)NC(C)=O)C(=O)N[C@@H](CCC(=O)O)C(=O)N[C@@H](Cc1c[nH]cn1)C(=O)N[C@H](Cc1ccccc1)C(=O)N[C@@H](CCCNC(=N)N)C(=O)N[C@@H](Cc1c[nH]c2ccccc12)C(=O)NCC(=O)N[C@@H](CCCCN)C(=O)N1CCC[C@H]1C(=O)N[C@@H](C)C(N)=O	Melanocortin receptor 4	–	–	–	0.00035 ± 9e-05 µM
CCCCN(Cc1ccccc1OC)C(=O)c1cc(C)c(C)s1	ATP2A2	Ca2+-ATPase activity, activator	porcine cardiac SR vesicles	maximal Ca2+ activity	4 ± 0.8 µM
O=c1ccn([C@@H]2O[C@H](COP(=O)(O)OP(=O)(O)OP(=O)(O)O[C@H]3O[C@H](CO)[C@@H](O)[C@H](O)[C@H]3O)[C@@H](O)[C@H]2O)c(=O)[nH]1	P2Y purinoceptor 2 (P2RY2, Homo sapiens, UniProt P41231)	PLC activation, agonist	1321N1, transfected	–	> 10 µM
CC(C)C[C@H](NC(=O)CC[C@@H](C)[C@H]1CC[C@H]2[C@@H]3[C@H](O)C[C@@H]4C[C@H](O)CC[C@]4(C)[C@H]3C[C@H](O)[C@]12C)C(=O)O	GPBAR1	G protein activation, agonist, BRET	–	–	1150 µM
Cc1nn(C)c(C)c1-c1ccc(CN2C(=O)C3(CCN(C4CCCC4)C3)c3ccccc32)c(F)c1 (stereo not shown)	CHRM1	acetylcholine response, positive allosteric modulator	cell-based	inactive up to 30 µM	> 30 µM
CSCC[C@H](NC(=O)[C@H](CO)NC(=O)[C@H](Cc1ccc(O)cc1)NC(=O)[C@H](CO)NC(C)=O)C(=O)N[C@@H](CCC(=O)O)C(=O)N[C@@H](C)C(=O)N[C@@H](Cc1ccccc1)C(=O)N[C@@H](CCCNC(=N)N)C(=O)N[C@@H](Cc1c[nH]c2ccccc12)C(=O)NCC(=O)N[C@@H](CCCCN)C(=O)N1CCC[C@H]1C(=O)N[C@H](C(N)=O)C(C)C	Melanocortin receptor 4	–	–	–	2.75 ± 0.73 µM
O=c1[nH]c(=O)n([C@@H]2O[C@H](COP(=O)(O)OP(=O)(O)OP(=O)(O)O[C@H]3O[C@H](CO)[C@@H](O)[C@H](O)[C@H]3O)[C@@H](O)[C@H]2O)cc1I	P2RY4	PLC activation, agonist	1321N1, transfected	–	> 10 µM
CCN(Cc1ccccc1OC)C(=O)c1cccc(Br)c1	ATP2A2	Ca2+-ATPase activity, activator	porcine cardiac SR vesicles	maximal Ca2+ activity	4.8 ± 1.8 µM
O=c1ccn([C@@H]2O[C@H](COP(=O)(O)OP(=O)(O)OP(=O)(O)OC3CCCCC3)[C@@H](O)[C@H]2O)c(=O)[nH]1	P2RY4	PLC activation, agonist	1321N1, transfected	–	> 10 µM
Cn1cc(-c2ccc(CN3C(=O)CCCc4ccccc43)c(F)c2)cn1	CHRM1	calcium response, positive allosteric modulator	HM1 cells	added: acetylcholine	> 30 µM
CCC(O)/C=C/C=O (stereo not shown)	Trpa1 (Mus musculus, UniProt Q8BLA8)	calcium signal, agonist, fluorescence	–	–	39.9 µM
CCCC[C@H](NC(=O)[C@H](CO)NC(=O)[C@H](Cc1ccc(O)cc1)NC(=O)[C@H](CO)NC(C)=O)C(=O)N[C@@H](CCC(=O)O)C(=O)N[C@@H](Cc1c[nH]cn1)C(=O)N[C@H](Cc1ccccc1)C(=O)N[C@@H](CCCNC(=N)N)C(=O)N[C@@H](Cc1c[nH]c2ccccc12)C(=O)NCC(=O)N[C@@H](C)C(=O)N1CCC[C@H]1C(=O)N[C@H](C(N)=O)C(C)C	Melanocortin receptor 4	–	–	–	0.00023 ± 3e-05 µM
BP(=O)(OC[C@H]1O[C@@H](n2ccc(=O)[nH]c2=O)[C@H](O)[C@@H]1O)OP(=O)(O)OP(=O)(O)OC[C@H]1O[C@@H](n2ccc(=O)[nH]c2=O)[C@H](O)[C@@H]1O (stereo partly shown)	P2RY4	intracellular calcium rise, agonist	1321N1 expressing human P2Y4	37 °C	> 100 µM
CCN(Cc1ccccc1OC)C(=O)c1ccc(F)c(Br)c1	ATP2A2	Ca2+-ATPase activity, activator	porcine cardiac SR vesicles	maximal Ca2+ activity	6.1 ± 2.8 µM
CSCC[C@H](NC(=O)[C@H](CO)NC(=O)[C@H](Cc1ccc(O)cc1)NC(=O)[C@H](C)NC(C)=O)C(=O)N[C@@H](CCC(=O)O)C(=O)N[C@@H](Cc1c[nH]cn1)C(=O)N[C@@H](Cc1ccccc1)C(=O)N[C@@H](CCCNC(=N)N)C(=O)N[C@@H](Cc1c[nH]c2ccccc12)C(=O)NCC(=O)N[C@@H](CCCCN)C(=O)N1CCC[C@H]1C(=O)N[C@H](C(N)=O)C(C)C	Melanocortin receptor 4	–	–	–	0.014 ± 0.0056 µM
CCCN(Cc1ccc(OC)cc1)C(=O)c1cc(C)c(C)s1	ATP2A2	Ca2+-ATPase activity, activator	porcine cardiac SR vesicles	maximal Ca2+ activity	7.9 ± 2.3 µM
CNC(=O)CC[C@@H](C)[C@H]1CC[C@H]2[C@@H]3CC[C@@H]4C[C@H](OC(=O)CCCCCC(=O)O)CC[C@]4(C)[C@H]3CC[C@]12C	human 20S proteasome	chymotrypsin-like activity, activator	–	without PA28	> 15 µM

SMILES	target	assay	system	setting	EC50
CCCC[C@H](NC(=O)[C@H](CO)NC(=O)[C@H](Cc1ccc(O)cc1)NC(=O)[C@H](CO)NC(C)=O)C(=O)N[C@@H](CCC(=O)O)C(=O)N[C@@H](Cc1c[nH]cn1)C(=O)N[C@@H](C)C(=O)N[C@@H](CCCNC(=N)N)C(=O)N[C@@H](Cc1c[nH]c2ccccc12)C(=O)NCC(=O)N[C@@H](CCCCN)C(=O)N1CCC[C@H]1C(=O)N[C@H](C(N)=O)C(C)C	Melanocortin receptor 4	–	–	–	0.38 ± 0.064 µM
CCCN(Cc1ccccc1OC)C(=O)c1ccc(Br)c(Br)c1	ATP2A2	Ca2+-ATPase activity, activator	porcine cardiac SR vesicles	maximal Ca2+ activity	0.9 ± 0.4 µM
CSCC[C@H](NC(=O)[C@H](CO)NC(=O)[C@H](Cc1ccc(O)cc1)NC(=O)[C@H](CO)NC(C)=O)C(=O)N[C@@H](CCC(=O)O)C(=O)N[C@@H](Cc1c[nH]cn1)C(=O)N[C@@H](Cc1ccccc1)C(=O)N[C@@H](CCCNC(=N)N)C(=O)N[C@@H](Cc1c[nH]c2ccccc12)C(=O)NCC(=O)N[C@@H](CCCCN)C(=O)N[C@@H](C)C(=O)N[C@H](C(N)=O)C(C)C	Melanocortin receptor 4	–	–	–	0.044 ± 0.017 µM
Nc1ncnc2c1ncn2[C@@H]1O[C@H](COP(=O)(O)OP(=O)(O)OP(=O)(O)O)[C@@H](O)[C@H]1O	Ribonuclease L (Sus scrofa, UniProt A5H025)	binding, fluorescence polarization	–	added: BODIPY-labelled compound	1.85 ± 0.08 µM
CC1=NN(CC(=O)Nc2ccc(Br)cc2)C(=O)CC1C (racemic)	N-formyl peptide receptor 3 (Homo sapiens, UniProt P25089)	calcium signal, agonist	–	–	11.8 µM
O=C(c1ccc(-n2nc(C(F)(F)F)c3c2CCCC3)cc1)N1CCCC1	Glutamate receptor 1, flip isoform (GRIA1, Homo sapiens, UniProt P42261)	glutamate-induced Ca2+ flux, potentiator, FLIPR	HEK293	added: glutamate 100 µM	20 µM and 25.1 µM
BP(=O)(OC[C@H]1O[C@@H](n2cnc3c(N)ncnc32)[C@H](O)[C@@H]1O)OP(=O)(O)OP(=O)(O)OC[C@H]1O[C@@H](n2cnc3c(N)ncnc32)[C@H](O)[C@@H]1O (stereo partly shown)	P2RY4	intracellular calcium rise, agonist	1321N1 expressing human P2Y4	37 °C	> 100 µM
CCCCC/C(=C\C/C=C\CCCCCCCC(=O)O)[N+](=O)[O-]	PPARG (Homo sapiens, UniProt P37231)	reporter gene, agonist	MCF7 PPRE-luciferase	24 h, without doxycycline	0.41 to 0.62 µM and 0.62 µM
C[C@H](CCC(=O)N[C@H](Cc1ccc(O)cc1)C(=O)O)[C@H]1CC[C@H]2[C@@H]3[C@H](O)C[C@@H]4C[C@H](O)CC[C@]4(C)[C@H]3CC[C@]12C	GPBAR1	G protein activation, agonist, BRET	–	–	93.7 µM
O=C(NN=Cc1ccc2ccccc2n1)c1ccccc1	ESRRA (Homo sapiens, UniProt P11474)	reporter gene, agonist, luciferase reporter	HEK293 transfected	–	0.487 µM
CCCC[C@H](NC(=O)[C@H](CO)NC(=O)[C@H](Cc1ccc(O)cc1)NC(=O)[C@H](CO)NC(C)=O)C(=O)N[C@@H](C)C(=O)N[C@@H](Cc1c[nH]cn1)C(=O)N[C@H](Cc1ccccc1)C(=O)N[C@@H](CCCNC(=N)N)C(=O)N[C@@H](Cc1c[nH]c2ccccc12)C(=O)NCC(=O)N[C@@H](CCCCN)C(=O)N1CCC[C@H]1C(=O)N[C@H](C(N)=O)C(C)C	Melanocortin receptor 4	–	–	–	0.00058 ± 3e-05 µM
COC(=O)[C@H](CCCCNC(=O)[C@H](CC1CCCCC1)NC(=O)c1cccs1)NC(=O)c1cccc(O)c1	PPM1D (Homo sapiens, UniProt O15297)	γH2AX level increase, inhibitor, ELISA	MCF7	75 min after irradiation, pretreated 1 h, added: 10 Gy ionizing radiation	56 ± 5 µM
CCCCCCCCCC/C=C\CCCCC(=O)O	DNA topoisomerase IB	DNA relaxation, inhibitor	–	30 min, 37 °C	80.4 ± 9.3 µM
CCCC[C@H](NC(=O)[C@H](CO)NC(=O)[C@H](Cc1ccc(O)cc1)NC(=O)[C@H](CO)NC(C)=O)C(=O)N[C@@H](CCC(=O)O)C(=O)N[C@@H](Cc1c[nH]cn1)C(=O)N[C@H](Cc1ccccc1)C(=O)N[C@@H](CCCNC(=N)N)C(=O)N[C@@H](C)C(=O)NCC(=O)N[C@@H](CCCCN)C(=O)N1CCC[C@H]1C(=O)N[C@H](C(N)=O)C(C)C	Melanocortin receptor 4	–	–	–	0.34 ± 0.14 µM
CCCCCCCCCCCCCCCC(OC)C(=O)O (racemic)	DNA topoisomerase IB	DNA relaxation, inhibitor	–	30 min, 37 °C	> 1000 µM
Cc1c(C)c2c(c(C)c1O)CCC(C)(C(=O)O)O2 (stereo not shown)	cytochrome P450 oxidoreductase	NADPH-dependent NO consumption, NO electrode	–	37 °C, added: NADPH 100 µM, DETA/NO 300 µM	270 µM
CC(C)(O)CCCC1=CCC(C=O)CC1 (stereo not shown)	Or10j5 (Mus musculus, UniProt Q62007)	ion current, agonist, patch clamp	–	–	1.4 µM
